Measurements gathered from unrelated publications.
Every numbered part comes from another study and shows a few of its results, in no order.

Study 1 — technique: universal PBM; form: double-stranded DNA, one strand shown; matrix: in vitro; concentration: 600 nM; reading: higher = stronger binding
Target: Sal-like protein 4, full length isoform A (SALL4, Homo sapiens, UniProt Q9UJQ4, residues 1-1053)
Sequence of UniProt Q9UJQ4 (whole entry, looked up): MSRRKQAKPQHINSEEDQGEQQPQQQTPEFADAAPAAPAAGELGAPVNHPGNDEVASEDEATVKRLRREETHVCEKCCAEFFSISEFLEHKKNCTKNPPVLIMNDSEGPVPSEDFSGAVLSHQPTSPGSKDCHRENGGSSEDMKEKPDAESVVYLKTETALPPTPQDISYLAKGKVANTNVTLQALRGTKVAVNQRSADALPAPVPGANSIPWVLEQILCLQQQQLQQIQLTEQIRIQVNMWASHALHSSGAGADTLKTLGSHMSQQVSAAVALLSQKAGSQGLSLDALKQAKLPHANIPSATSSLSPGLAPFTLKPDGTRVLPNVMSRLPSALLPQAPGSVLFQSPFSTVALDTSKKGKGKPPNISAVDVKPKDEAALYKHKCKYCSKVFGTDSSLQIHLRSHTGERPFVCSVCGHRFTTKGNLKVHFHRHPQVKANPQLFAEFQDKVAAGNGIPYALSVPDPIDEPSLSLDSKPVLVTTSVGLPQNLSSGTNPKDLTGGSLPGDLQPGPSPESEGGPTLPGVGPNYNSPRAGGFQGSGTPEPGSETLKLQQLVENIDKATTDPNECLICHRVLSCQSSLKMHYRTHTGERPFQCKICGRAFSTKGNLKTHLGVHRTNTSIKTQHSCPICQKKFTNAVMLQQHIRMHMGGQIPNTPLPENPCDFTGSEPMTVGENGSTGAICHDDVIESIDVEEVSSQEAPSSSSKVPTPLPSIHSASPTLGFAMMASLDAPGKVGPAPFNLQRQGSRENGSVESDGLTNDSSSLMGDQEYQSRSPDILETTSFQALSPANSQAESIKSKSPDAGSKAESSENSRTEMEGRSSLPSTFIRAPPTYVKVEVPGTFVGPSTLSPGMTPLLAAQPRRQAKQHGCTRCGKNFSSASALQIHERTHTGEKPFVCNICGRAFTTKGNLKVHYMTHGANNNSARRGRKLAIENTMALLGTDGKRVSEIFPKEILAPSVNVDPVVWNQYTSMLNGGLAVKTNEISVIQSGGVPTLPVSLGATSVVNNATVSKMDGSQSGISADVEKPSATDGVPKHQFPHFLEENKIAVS
Setting: 8-mer, flanks averaged, mean of replicates
Oligonucleotide	E-score
AAAAGGGT	0.12
CGTACGAG	-0.073
AGATCTTA	0.0823
CCAGTGGA	-0.369
CACCGCTG	-0.257
CACCGCTA	-0.141
CTGCATGA	-0.127
CTAAGGAG	-0.238
CACTTACG	0.012

Study 2 — technique: protein binding microarray; form: double-stranded DNA, one strand shown; matrix: in vitro; concentration: not given; relative to: not given; reading: higher = stronger binding
Target: Histone acetyltransferase KAT6A, both winged helices, GST fusion (KAT6A, Homo sapiens, UniProt Q92794, residues 1-181)
Setting: 8-mer, flanks averaged, mean of 2 arrays, mostly near background
Target sequence (chain): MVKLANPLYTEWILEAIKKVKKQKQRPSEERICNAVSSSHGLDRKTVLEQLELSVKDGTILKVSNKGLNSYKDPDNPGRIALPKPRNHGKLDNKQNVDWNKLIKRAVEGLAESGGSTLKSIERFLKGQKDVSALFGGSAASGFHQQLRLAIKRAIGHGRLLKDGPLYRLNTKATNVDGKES
Oligonucleotide	E-score
ACCCTGAT	-0.142
CCGAATCG	0.158
GGCAACTA	-0.0739
ACGTGCTA	-0.0109
AAGGAGGT	-0.213
CAACAGGG	-0.244
AGTCTGCA	-0.109
GAGCCTAA	-0.253
ACTACGTG	0.0151

Study 3 — technique: RNA Bind-n-Seq; form: RNA; matrix: in vitro; concentration: 200 nM; setting: whole 134-nt RNA, ends assumed; added: 150 mM KCl; relative to: input library; reading: higher = stronger binding
Target: Ras GTPase-activating protein-binding protein 1, full length (G3BP1, Homo sapiens, UniProt Q13283)
Sequence of UniProt Q13283 (whole entry, looked up): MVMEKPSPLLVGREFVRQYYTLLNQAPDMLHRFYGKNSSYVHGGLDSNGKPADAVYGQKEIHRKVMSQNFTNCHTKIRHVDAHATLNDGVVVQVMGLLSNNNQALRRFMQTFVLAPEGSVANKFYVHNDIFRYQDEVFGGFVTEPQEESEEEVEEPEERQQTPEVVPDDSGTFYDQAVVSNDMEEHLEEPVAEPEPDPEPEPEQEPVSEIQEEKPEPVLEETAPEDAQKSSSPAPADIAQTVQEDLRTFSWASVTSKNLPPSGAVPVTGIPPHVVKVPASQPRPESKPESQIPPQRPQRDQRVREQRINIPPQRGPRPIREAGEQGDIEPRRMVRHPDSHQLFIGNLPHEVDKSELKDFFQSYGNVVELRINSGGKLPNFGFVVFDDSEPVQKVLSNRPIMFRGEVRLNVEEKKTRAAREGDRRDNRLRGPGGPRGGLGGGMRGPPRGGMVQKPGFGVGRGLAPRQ
Constant ends, left off below: GGGAGUUCUACAGUCCGACGAUC … UGGAAUUCUCGGGUGUCAAGG
Oligonucleotide	log2 enrichment
UUUUUGAAUCAAUUUUUAAAACAUGCCAUUGUGUUUCAGGCUCGCGGGAUUGAUGUGCAACAAGUGUCUUUGGUUAUAAAUUAUGAUCUA	-0.437
UAACUUUAGAGGAGGAUCUGAUGGAUAUGGCAGUGGACGUGGAUUCGGGGAUGGCUAUAAUGGGUAUGGAGGAGGACCUGGAGGUGGCAA	0.183
CAAGUCCUGUGCUACACAUCGUAUGUACCGAAUCGGAAAGGGGAAAGGGAAAGGGGAAAGUAUUAUGUUACGCCGUUCGGAUCUGCACUU	0.121
ACCAUGCAGGUGGGCAUCUUUGGGAAGUGGGGCAAGGGGGGGAUAGGGAGGGUGGUAACACUUUGGGAACAGGUGGUCCCAGGUCGUUUC	1.16
GUCCUGUGCUACACAUCGUAUGUACCGAAUCGGGAAAGGGUUUUUUUGGGUUUUUGGGAAAGUAUUAUGUUACGCCGUUCGGAUCUGCAC	-0.495

Single results of other studies
Molecule	target	test	system	conditions	how to read	endpoint	value
PhoQ, residues 284 288 289 292 302 303 NLSRDF	PhoP, residues 12 14 15 18 19 GQALL (Escherichia coli, UniProt P23836)	Sort-seq, item: YFP reporter	E. coli	PhoQ-PhoP variant library, added: 10 µM Mg2+	relative to: high Mg2+ state, higher = stronger signaling	fold induction	13.5

Repeated from above (study 2):
Oligonucleotide	E-score
AAGGAGGT	-0.213
GAGCCTAA	-0.253
ACCCTGAT	-0.142
